Experimental data from different studies.
Compare with care: the assays were run in different laboratories. ± gives the spread as reported.

CCCC[C@H](NC(=O)CNC(=O)CNC(=O)CN1CCN(CC(=O)O)CCN(CC(=O)O)CC1)C(=O)N[C@H]1CC(=O)NCCCC[C@@H](C(N)=O)NC(=O)[C@H](Cc2c[nH]c3ccccc23)NC(=O)[C@H](CCCNC(=N)N)NC(=O)[C@@H](Cc2ccccc2)NC(=O)[C@H](Cc2c[nH]cn2)NC1=O [copper-64 labelled]
tissue uptake (female C57 mice, B16/F1 melanoma, liver; intravenous, 0.037 MBq, 2 h): < 0.8 %ID/g

CC(F)C(=O)NC[C@@H]1O[C@H](C(=O)N[C@@H](CCC(=O)NCCCC[C@@H]2NC(=O)[C@@H](Cc3ccc(O)cc3)NC(=O)[C@H](CC(=O)O)NC(=O)CNC(=O)[C@H](CCCNC(=N)N)NC2=O)C(=O)NCCCC[C@@H]2NC(=O)[C@@H](Cc3ccc(O)cc3)NC(=O)[C@H](CC(=O)O)NC(=O)CNC(=O)[C@H](CCCNC(=N)N)NC2=O)[C@H](O)[C@H](O)[C@H]1O (stereo partly shown) [fluorine-18 labelled]
tissue uptake (small-animal PET; female athymic nude mice, U-87 MG xenograft, liver; intravenous, 3.7 MBq, 120 min): 0.25 ± 0.05 %ID/g

O=C([O-])CN1CCN(CC(=O)[O-])CCN(CC(=O)NC[C@H]2CC[C@H](C(=O)N[C@H](Cc3cnc4ccccc4c3)C(=O)NCCCC[C@H](NC(=O)N[C@@H](CCC(=O)O)C(=O)O)C(=O)O)CC2)CCN(CC(=O)[O-])CC1.[64Cu+2]
tissue uptake (ex vivo gamma counting; 22Rv1 tumour-bearing mice, liver; intravenous, 0.74 MBq, 1 h): 19.2 ± 2.95 %ID/g

CN1C(=O)[C@@H](Cc2ccc(O)c(I)c2)NC(=O)CNC(=O)[C@H](Cc2ccc3ccccc3c2)NC(=O)[C@H](CCCNC(=N)N)NC(=O)[C@H]1CCCNC(=O)c1ccc(CNC(=O)CN2CCN(CC(=O)O)CCN(CC(=O)O)CCN(CC(=O)O)CC2)cc1 [lutetium-177 labelled]
tissue uptake (item: 177Lu radioactivity; female CB-17 SCID mice, Daudi xenograft, muscle; intravenous, 0.16 nmol per mouse, 6 h): 0.06 ± 0.01 %ID/g

CCCC[C@H](NC(=O)CN1CCC(NC(=O)CN2CCN(CC(=O)O)CCN(CC(=O)O)CCN(CC(=O)O)CC2)CC1)C(=O)N[C@H]1CC(=O)NCCCC[C@@H](C(N)=O)NC(=O)[C@H](Cc2c[nH]c3ccccc23)NC(=O)[C@H](CCCNC(=N)N)NC(=O)[C@@H](Cc2ccccc2)NC(=O)[C@H](Cc2c[nH]cn2)NC1=O [gallium-68 labelled]
tissue uptake (male C57BL/6J mice, B16-F10 tumours, testes; intravenous, 1 h, blocking study, with: 100 µg non-radioactive Ga-peptide): 0.6 ± 0.3 %ID/g

CCCC[C@@H]1NC(=O)[C@@H](NC(=O)[C@H](CCC(=O)O)NC(=O)CNC(=O)CN2CCN(CC(=O)O)CCN(CC(=O)O)CCN(CC(=O)O)CC2)CCCCNC(=O)C[C@@H](C(N)=O)NC(=O)[C@H](C(C)C)NC(=O)[C@@H]2CCCN2C(=O)[C@H](CCCNC(=N)N)NC(=O)CNC(=O)[C@H](Cc2c[nH]c3ccccc23)NC(=O)[C@H](CCCNC(=N)N)NC(=O)[C@@H](Cc2ccccc2)NC(=O)[C@H](Cc2c[nH]cn2)NC(=O)[C@H](CCC(=O)O)NC1=O [gallium-67 labelled]
tissue uptake (C57 mice, B16/F10 lung metastases, bone; intravenous, 0.037 MBq/mouse, 2 h): 0.16 ± 0.09 %ID/g

O=C([O-])CN1CCN(CC(=O)[O-])CCN(CC(=O)[O-])CCN(CC(=O)[O-])CC1.[64Cu+2]
tissue uptake (healthy athymic nude mice, muscle; intravenous, 24 h): 0.09 %ID/g

N=C(N)NCCC[C@H](NC(=O)[C@@H]1CSSC[C@H](NC(=O)[C@H](Cc2ccc3ccccc3c2)NC(=O)[C@H](CCCNC(=N)N)NC(=O)[C@H](CCCNC(=N)N)NC(=O)CN2CCN(CC(=O)O)CCN(CC(=O)O)CCN(CC(=O)O)CC2)C(=O)N[C@@H](Cc2ccc(O)cc2)C(=O)N[C@@H](CCCNC(N)=O)C(=O)N[C@@H](CCCCN)C(=O)N[C@H](CCCCN)C(=O)N2CCC[C@H]2C(=O)N[C@@H](Cc2ccc(O)cc2)C(=O)N[C@@H](CCCNC(=N)N)C(=O)N[C@@H](CCCNC(N)=O)C(=O)N1)C(N)=O [copper-64 labelled]
tissue uptake (PET; tumour-bearing mice, kidney; 100 µCi, 24 h): 22.4 ± 4.7 %ID/g

CC(F)C(=O)NC[C@@H]1O[C@H](C(=O)NCCCC[C@@H]2NC(=O)[C@@H](Cc3ccccc3)NC(=O)[C@H](CC(=O)O)NC(=O)CNC(=O)[C@H](CCCNC(=N)N)NC2=O)[C@H](O)[C@H](O)[C@H]1O (stereo partly shown) [fluorine-18 labelled]
tissue uptake (small-animal PET; female athymic nude mice, U-87 MG xenograft, muscle; intravenous, 3.7 MBq, 60 min): 0.1 ± 0.01 %ID/g

CCCC[C@H](NC(=O)CNC(=O)CNC(=O)CN1CCN(CC(=O)O)CCN(CC(=O)O)CCN(CC(=O)O)CC1)C(=O)N[C@H]1CC(=O)NCCCC[C@@H](C(N)=O)NC(=O)[C@H](Cc2c[nH]c3ccccc23)NC(=O)[C@H](CCCNC(=N)N)NC(=O)[C@@H](Cc2ccccc2)NC(=O)[C@H](Cc2c[nH]cn2)NC1=O [gallium-67 labelled]
tissue uptake (female C57 mice, B16/F1 melanoma, spleen; intravenous, 0.037 MBq, 4 h): 0.64 ± 0.06 %ID/g

A few entries again:
CN1C(=O)[C@@H](Cc2ccc(O)c(I)c2)NC(=O)CNC(=O)[C@H](Cc2ccc3ccccc3c2)NC(=O)[C@H](CCCNC(=N)N)NC(=O)[C@H]1CCCNC(=O)c1ccc(CNC(=O)CN2CCN(CC(=O)O)CCN(CC(=O)O)CCN(CC(=O)O)CC2)cc1 [lutetium-177 labelled]
tissue uptake (item: 177Lu radioactivity; female CB-17 SCID mice, Daudi xenograft, muscle; intravenous, 0.16 nmol per mouse, 6 h): 0.06 ± 0.01 %ID/g

CCCC[C@H](NC(=O)CN1CCC(NC(=O)CN2CCN(CC(=O)O)CCN(CC(=O)O)CCN(CC(=O)O)CC2)CC1)C(=O)N[C@H]1CC(=O)NCCCC[C@@H](C(N)=O)NC(=O)[C@H](Cc2c[nH]c3ccccc23)NC(=O)[C@H](CCCNC(=N)N)NC(=O)[C@@H](Cc2ccccc2)NC(=O)[C@H](Cc2c[nH]cn2)NC1=O [gallium-68 labelled]
tissue uptake (male C57BL/6J mice, B16-F10 tumours, testes; intravenous, 1 h, blocking study, with: 100 µg non-radioactive Ga-peptide): 0.6 ± 0.3 %ID/g
